Measurements gathered from unrelated publications.
Each numbered part is a random draw from the data of one study; scales do not carry over between parts.

Set 1
Target: Phosphate system positive regulatory protein PHO4, full length, GST-tagged (PHO4, Saccharomyces cerevisiae, UniProt P07270, residues 1-312)
Method: competition protein-binding microarray
Molecule type: double-stranded DNA, one strand shown
Medium: in vitro
Tested at: 2 µM
Setting: whole 60-bp probe, lowest competitor level
Added: Cbf1 competitor, 0.05 µM
Direction: higher = stronger binding
All sequences stand within: … GTCTTGATTCGCTTGACGCTGCTG
Target sequence (chain): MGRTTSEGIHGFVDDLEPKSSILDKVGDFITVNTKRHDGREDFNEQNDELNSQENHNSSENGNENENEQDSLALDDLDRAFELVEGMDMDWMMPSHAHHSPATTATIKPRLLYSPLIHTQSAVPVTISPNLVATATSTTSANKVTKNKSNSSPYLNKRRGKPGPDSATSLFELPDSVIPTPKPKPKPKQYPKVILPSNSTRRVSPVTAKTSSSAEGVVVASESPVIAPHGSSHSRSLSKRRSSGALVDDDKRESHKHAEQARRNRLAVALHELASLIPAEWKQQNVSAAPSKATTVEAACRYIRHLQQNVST
With `CTTCTGTAAATTTGCCCCGTGGGTGGACGCGCCCCG` the fluorescence intensity was 10300 a.u.
For `GTAGTCCTGAGCCAACGCATGCCGGTTTTGTTGGTG`, the fluorescence intensity was 8190 a.u.
The fluorescence intensity of `AGGTAGATCTCTACACGTGTGCAAGCGCATAACAAT` is reported as 18100 a.u.
With `CTAACGAAGGTTTGAAGTGTGGGTGACAAGCCAAGT` the fluorescence intensity was 4550 a.u.
The fluorescence intensity of `CTAACGAAGGTTTGAAATGTGGGTGACAAGCCAAGT` is reported as 5490 a.u.

Set 2
Target: Interferon regulatory factor 5, full length, phosphomimetic (IRF5, Homo sapiens, UniProt Q13568-2, residues 1-514, S451D/S453D/S456D/S462D)
Method: protein-binding microarray
Molecule type: double-stranded DNA, one strand shown
Medium: in vitro
Tested at: 940 nM top
Setting: 60-bp whole probe
Added: salmon DNA 0.4 mg/ml
Baseline: random background probes
Direction: higher = stronger binding
All sequences stand within: GCCTAGCAC … GTCTTGATTCGCTTGACGCTGCTG
Under “fitted relative affinity”, `GACGGCCTCGGTCTCGGGACGTGCTAG` is recorded as -0.032 z-score.
Under “fitted relative affinity”, `TTAGACTTCAGTTCCGATTAGTGCTAG` is recorded as 0.721 z-score.
Under “fitted relative affinity”, `TTACGACTGGGGACTGGGTTAGTGCTA` is recorded as 0.122 z-score.
`GACGGTATCGGGTATCGGGATGTGCTA` — result for “fitted relative affinity”: 5.38 z-score.
`TTAGGACGGGACACTGGGTTAGTGCTA`: “fitted relative affinity” -0.468 z-score.

Set 3
Target: Sal-like protein 4, full length isoform B (SALL4, Homo sapiens, UniProt Q9UJQ4-2, residues 1-616)
Method: universal PBM
Molecule type: double-stranded DNA, one strand shown
Medium: in vitro
Tested at: not given
Setting: 8-mer, flanks averaged, mean of replicates
Direction: higher = stronger binding
Residues (chain): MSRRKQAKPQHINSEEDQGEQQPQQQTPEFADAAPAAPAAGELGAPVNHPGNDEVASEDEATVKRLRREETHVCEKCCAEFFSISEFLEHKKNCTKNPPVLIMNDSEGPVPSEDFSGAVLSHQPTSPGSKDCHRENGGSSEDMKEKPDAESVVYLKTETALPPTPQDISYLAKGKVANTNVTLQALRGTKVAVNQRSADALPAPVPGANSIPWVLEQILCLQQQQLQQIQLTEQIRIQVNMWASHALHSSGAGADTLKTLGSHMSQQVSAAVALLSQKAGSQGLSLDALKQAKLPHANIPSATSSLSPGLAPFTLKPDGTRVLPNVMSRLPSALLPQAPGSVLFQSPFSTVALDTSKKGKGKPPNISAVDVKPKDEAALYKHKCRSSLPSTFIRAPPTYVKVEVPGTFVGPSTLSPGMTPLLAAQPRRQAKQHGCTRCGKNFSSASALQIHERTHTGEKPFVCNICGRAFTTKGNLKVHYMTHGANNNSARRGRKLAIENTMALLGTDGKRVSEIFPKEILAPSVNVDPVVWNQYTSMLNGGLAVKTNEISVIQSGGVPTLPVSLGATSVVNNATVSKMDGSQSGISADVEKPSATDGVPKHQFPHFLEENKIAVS
The E-score of `AATAGTGG` is reported as 0.219.
`ACCAACGT` gave an E-score of 0.0199.
`CCGGATCG` gave an E-score of -0.356.
The E-score of `CCACCGCA` is reported as -0.201.
`GGTCAACA` has an E-score of 0.0679.
For `AACGTTGA`, the E-score was 0.0723.

Further values, each from its own experiment
`PhoQ, residues 284 288 289 292 302 303 TTSMTC` has a fold induction of 12.3 (PhoP, residues 12 14 15 18 19 LWHCS (Escherichia coli, UniProt P23836); Sort-seq, measured: YFP reporter; E. coli; PhoQ-PhoP variant library, added: 10 µM Mg2+; baseline: high Mg2+ state, higher = stronger signaling).

A few entries again (set 3):
`ACCAACGT` gave an E-score of 0.0199.
`CCGGATCG` gave an E-score of -0.356.
